Results from different studies.
Protocols differ between the studies behind these lines. Numbers after ± are the reported error.

SMILES | assay | system | conditions | Cmax
C=CC(=O)Nc1cc(Nc2nccc(-c3cn(C)c4ccccc34)n2)c(OC)cc1N(C)CCN(C)C |  | Sprague-Dawley rat, male, plasma | oral, 10 mg/kg, together with: avitinib 30 mg/kg single dose on day 7 | 0.0883 ± 0.0236 µg/mL
O=C(O)C[C@H](O)C[C@H](O)/C=C/c1c(C2CC2)nc2ccccc2c1-c1ccc(F)cc1 |  | male Sprague Dawley rat, NASH, plasma | oral, 2.5 mg/kg, geometric mean, together with: silymarin 500 mg/kg oral | 4.2 µM
CS(=O)(=O)c1ccc(-c2cnc(N)c(-c3ccc(C(F)(F)F)nc3)c2)cc1 |  | pregnant female Sprague-Dawley rat, plasma | oral, 10 mg/kg/day, gestation day 6 | 2.16 µg/mL
CCN1CCN(c2ccc(Nc3cc(N(C)C(=O)Nc4c(Cl)c(OC)cc(OC)c4Cl)ncn3)cc2)CC1 | LC-MS/MS | juvenile female Crl:WI(Han) rats, plasma | oral gavage, 0.3 mg/kg/day, postnatal day 17 | 0.0181 µg/mL
Cc1nc2cccc(OCC(C)(C)C(=O)NC(C)C)c2c(N)c1C(=O)O |  | female Sprague-Dawley rat, plasma | dietary, 100 mg/kg/day, day 90 | 0.092 µg/mL
CC(C)=CCC[C@](C)(O[C@@H]1O[C@H](CO)[C@@H](O)[C@H](O)[C@H]1O)[C@H]1CC[C@]2(C)[C@@H]1[C@H](O)C[C@@H]1[C@@]3(C)CC[C@H](O[C@@H]4O[C@H](CO)[C@@H](O)[C@H](O)[C@H]4O[C@@H]4O[C@H](CO)[C@@H](O)[C@H](O)[C@H]4O)C(C)(C)[C@@H]3CC[C@]12C |  | Sprague-Dawley rat, plasma | oral, 2000 mg/kg ginseng extract, control diet 2 weeks before dosing | 0.906 ± 0.33 µg/mL
C=CC(N)CCC(=O)O (centres unmarked) |  | male Sprague-Dawley rat, plasma | oral, 1.0 mg/kg, formulation 3, together with: low-fat infant formula 1500 mg/kg | 0.984 ± 0.045 µg/mL
Cc1cc(Nc2cc3ncccc3c(N[C@@H]3C[C@H]4CC[C@@H](C3)N4CCC#N)n2)n[nH]1 |  | pregnant rat, maternal plasma | oral, 100 mg/kg/day, gestation day 17 | 0.006 µg/mL
